Experimental data pooled from the literature.
A part holds a random share of what one study measured. “And” joins repeats or separate records; there may be more than shown. Numbers after ± are the reported error. In brackets after ≈: the same amount, converted by molar mass.
UniProt P00519, sequence (whole entry, unmodified, looked up): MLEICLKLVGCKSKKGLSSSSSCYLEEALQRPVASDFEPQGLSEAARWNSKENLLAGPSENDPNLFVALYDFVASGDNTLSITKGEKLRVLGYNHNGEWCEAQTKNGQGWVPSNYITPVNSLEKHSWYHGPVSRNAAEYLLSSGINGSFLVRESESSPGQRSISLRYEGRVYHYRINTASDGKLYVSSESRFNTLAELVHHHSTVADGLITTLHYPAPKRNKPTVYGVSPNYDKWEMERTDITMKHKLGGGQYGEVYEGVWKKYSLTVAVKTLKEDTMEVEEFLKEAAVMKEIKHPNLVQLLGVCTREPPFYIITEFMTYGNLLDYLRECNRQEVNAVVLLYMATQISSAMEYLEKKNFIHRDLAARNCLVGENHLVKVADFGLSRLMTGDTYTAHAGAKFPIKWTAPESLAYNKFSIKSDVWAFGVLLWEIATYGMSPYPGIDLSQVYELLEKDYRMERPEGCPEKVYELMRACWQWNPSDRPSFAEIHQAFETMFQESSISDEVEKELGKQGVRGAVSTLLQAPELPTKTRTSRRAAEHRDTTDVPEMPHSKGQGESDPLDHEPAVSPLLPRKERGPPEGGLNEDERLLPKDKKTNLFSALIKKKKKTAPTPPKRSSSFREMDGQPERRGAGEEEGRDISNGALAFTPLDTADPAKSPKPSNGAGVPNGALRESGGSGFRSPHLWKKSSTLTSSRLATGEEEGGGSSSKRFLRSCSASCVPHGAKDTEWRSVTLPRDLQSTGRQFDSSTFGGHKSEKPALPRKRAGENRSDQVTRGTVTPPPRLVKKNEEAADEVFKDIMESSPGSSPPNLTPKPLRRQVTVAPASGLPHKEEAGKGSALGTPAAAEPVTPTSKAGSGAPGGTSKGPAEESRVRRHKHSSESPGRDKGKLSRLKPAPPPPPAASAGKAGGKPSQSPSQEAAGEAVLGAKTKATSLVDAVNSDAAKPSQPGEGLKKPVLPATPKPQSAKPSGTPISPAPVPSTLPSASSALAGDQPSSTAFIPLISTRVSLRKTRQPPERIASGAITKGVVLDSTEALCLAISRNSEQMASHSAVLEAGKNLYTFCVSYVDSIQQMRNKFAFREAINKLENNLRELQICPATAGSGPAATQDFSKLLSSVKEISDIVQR
UniProt P48729, sequence (whole entry, looked up): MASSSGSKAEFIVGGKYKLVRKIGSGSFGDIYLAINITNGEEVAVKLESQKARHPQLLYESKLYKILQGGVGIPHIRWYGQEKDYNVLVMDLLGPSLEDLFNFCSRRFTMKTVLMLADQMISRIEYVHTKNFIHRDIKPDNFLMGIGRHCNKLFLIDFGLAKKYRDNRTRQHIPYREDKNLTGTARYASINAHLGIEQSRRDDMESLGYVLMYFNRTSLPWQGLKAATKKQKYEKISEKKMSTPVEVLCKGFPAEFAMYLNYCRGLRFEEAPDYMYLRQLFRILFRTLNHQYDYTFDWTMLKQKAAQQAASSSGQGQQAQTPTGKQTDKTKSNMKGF
UniProt O75716, sequence (whole entry, looked up): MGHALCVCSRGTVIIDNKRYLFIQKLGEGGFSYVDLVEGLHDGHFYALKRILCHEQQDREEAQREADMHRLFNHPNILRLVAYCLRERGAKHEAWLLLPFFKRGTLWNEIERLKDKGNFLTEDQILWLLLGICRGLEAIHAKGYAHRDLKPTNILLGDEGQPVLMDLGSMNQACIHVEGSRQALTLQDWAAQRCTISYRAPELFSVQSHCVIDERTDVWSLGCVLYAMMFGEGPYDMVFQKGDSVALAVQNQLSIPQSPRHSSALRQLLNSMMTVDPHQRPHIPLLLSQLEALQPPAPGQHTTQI
UniProt P42336, sequence (whole entry, unmodified, looked up): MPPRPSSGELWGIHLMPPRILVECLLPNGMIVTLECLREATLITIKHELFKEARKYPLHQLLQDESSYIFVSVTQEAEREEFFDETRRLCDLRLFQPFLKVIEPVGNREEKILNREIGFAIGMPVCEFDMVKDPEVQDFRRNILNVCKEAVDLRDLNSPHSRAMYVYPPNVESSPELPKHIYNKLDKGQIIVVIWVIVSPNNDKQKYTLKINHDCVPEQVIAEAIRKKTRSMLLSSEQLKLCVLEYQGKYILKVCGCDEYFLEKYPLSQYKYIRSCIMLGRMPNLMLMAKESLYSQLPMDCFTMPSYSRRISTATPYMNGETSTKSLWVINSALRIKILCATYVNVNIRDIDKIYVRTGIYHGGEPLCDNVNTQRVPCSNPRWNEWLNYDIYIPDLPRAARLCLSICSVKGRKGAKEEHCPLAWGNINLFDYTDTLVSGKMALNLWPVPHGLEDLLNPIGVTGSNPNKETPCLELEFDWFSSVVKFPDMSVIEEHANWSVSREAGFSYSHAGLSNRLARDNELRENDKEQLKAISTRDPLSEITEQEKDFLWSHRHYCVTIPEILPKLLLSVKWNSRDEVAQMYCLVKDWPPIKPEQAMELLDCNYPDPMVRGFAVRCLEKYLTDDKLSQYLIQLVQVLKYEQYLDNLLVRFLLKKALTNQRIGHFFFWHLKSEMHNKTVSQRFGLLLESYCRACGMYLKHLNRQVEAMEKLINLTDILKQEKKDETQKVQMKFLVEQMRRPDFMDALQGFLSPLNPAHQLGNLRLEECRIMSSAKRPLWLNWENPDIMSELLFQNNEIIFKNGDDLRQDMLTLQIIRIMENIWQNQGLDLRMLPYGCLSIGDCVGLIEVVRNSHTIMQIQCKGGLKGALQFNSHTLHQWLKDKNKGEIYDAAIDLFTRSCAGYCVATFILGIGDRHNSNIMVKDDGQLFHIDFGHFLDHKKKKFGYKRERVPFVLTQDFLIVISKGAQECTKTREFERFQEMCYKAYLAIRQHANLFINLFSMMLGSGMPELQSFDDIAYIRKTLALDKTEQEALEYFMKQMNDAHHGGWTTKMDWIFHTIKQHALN
UniProt Q9UM73, sequence (whole entry, unmodified, looked up): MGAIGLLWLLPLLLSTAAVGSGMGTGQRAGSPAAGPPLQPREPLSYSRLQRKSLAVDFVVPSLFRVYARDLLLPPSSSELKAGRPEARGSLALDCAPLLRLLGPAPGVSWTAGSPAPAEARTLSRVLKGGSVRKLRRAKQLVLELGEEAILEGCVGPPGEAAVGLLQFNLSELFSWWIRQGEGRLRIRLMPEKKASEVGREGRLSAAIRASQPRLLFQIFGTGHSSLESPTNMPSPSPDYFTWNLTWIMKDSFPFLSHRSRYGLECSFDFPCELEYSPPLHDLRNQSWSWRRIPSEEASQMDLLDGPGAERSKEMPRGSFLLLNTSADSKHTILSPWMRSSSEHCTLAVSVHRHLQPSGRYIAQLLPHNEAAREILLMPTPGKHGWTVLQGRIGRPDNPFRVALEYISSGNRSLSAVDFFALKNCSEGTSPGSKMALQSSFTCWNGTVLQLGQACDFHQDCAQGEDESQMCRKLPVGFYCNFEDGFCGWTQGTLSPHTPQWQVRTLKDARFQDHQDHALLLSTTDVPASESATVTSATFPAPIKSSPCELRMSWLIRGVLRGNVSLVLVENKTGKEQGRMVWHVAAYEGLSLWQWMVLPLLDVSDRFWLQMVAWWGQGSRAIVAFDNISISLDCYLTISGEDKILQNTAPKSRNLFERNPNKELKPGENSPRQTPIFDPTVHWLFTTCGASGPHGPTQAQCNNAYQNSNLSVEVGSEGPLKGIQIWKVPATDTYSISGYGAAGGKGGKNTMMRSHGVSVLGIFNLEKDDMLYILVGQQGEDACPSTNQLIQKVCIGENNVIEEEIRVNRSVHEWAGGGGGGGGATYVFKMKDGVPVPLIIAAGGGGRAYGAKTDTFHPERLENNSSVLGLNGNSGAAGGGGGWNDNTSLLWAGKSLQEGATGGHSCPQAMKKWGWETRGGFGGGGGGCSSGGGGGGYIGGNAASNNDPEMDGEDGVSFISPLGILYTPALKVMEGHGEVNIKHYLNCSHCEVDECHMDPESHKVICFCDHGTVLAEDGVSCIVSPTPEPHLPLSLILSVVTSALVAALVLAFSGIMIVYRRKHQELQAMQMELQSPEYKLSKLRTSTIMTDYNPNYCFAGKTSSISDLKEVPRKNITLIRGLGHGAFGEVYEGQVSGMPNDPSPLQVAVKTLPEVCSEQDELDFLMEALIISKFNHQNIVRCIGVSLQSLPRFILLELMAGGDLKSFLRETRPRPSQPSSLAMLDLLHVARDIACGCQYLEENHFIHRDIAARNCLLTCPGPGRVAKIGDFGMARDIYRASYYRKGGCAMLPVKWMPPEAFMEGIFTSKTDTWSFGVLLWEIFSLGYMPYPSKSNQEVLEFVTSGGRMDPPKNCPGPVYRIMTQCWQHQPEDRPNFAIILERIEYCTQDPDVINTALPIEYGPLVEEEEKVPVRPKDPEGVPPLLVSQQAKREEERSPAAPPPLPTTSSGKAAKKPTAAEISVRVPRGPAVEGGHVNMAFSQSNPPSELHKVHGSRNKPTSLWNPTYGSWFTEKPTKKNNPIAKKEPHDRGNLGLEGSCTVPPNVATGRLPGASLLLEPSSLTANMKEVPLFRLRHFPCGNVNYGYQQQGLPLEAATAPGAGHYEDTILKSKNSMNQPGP

Sample 1 — Compound: O=C(Nc1ccccc1)Nc1cccc(Oc2ccc3nccn3n2)c1; concentration: 1 µM; measurement: remaining binding
NTRK2 (Homo sapiens, UniProt Q16620); binding, competition with immobilised ligand: 100%
ALK (Homo sapiens, UniProt Q9UM73, L1196M); binding: 100%
LYN (Homo sapiens, UniProt P07948); binding, competition with immobilised ligand: 100%
ABL1 (Homo sapiens, UniProt P00519, F317I): 51% and 100%
CSNK1D (Homo sapiens, UniProt P48730); binding: 100%
STK16 (Homo sapiens, UniProt O75716); binding: 100%
CSNK1A1 (Homo sapiens, UniProt P48729); binding: 100%
PIK3CA (Homo sapiens, UniProt P42336, C420R); binding: 100%

Sample 2 — mode: inhibitor; technique: FLIPR membrane potential; cells: CHO-BC cells; concentration: 30 µM; notes: 30 µM cinromide as 0%; added: 1.5 mM L-leucine; baseline: uninhibited cells; measurement: remaining activity
Target: Sodium-dependent neutral amino acid transporter B(0)AT1 (SLC6A19, Homo sapiens, UniProt Q695T7)
UniProt Q695T7, sequence (whole entry, looked up): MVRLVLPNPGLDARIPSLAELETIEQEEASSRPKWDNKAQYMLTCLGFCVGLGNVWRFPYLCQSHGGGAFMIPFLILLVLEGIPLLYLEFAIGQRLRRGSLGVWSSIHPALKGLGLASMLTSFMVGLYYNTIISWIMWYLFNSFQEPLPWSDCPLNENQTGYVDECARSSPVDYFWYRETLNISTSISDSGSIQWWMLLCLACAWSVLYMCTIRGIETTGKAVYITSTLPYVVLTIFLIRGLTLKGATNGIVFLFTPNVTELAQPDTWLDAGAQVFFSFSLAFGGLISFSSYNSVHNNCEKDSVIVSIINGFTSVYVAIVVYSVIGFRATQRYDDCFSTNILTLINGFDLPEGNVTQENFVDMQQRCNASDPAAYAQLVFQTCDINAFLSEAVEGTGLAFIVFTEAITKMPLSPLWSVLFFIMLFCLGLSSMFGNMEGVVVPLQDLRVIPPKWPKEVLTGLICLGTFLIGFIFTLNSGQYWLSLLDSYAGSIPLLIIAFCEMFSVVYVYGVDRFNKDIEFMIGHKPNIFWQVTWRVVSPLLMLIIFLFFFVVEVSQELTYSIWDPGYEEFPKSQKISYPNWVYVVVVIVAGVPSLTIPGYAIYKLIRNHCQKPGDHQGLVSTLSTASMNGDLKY
Cc1cc(OC(C)C(=O)NC(C)C)cc(C)c1Cl (racemic): 78 ± 9%
Cc1cc(OCC(=O)Nc2ccccc2)cc(C)c1Cl: 109 ± 6%
CC(C)NC(=O)COc1cccc2ccccc12: 10 ± 2%
Cc1cc(OCC(=O)CC(C)C)cc(C)c1Cl: 106 ± 13%
Cc1cc(OCC(=O)NCc2ccccc2)cc(C)c1Cl: 102 ± 10%
CC(C)NC(=O)COc1ccc(Cl)cc1: 34 ± 4%
CCC(C)NC(=O)COc1cc(C)c(Cl)c(C)c1 (racemic): 108 ± 12%
Cc1cc(OCC(=O)NC(C)(C)C)cc(C)c1Cl: 116 ± 4%

Sample 3 — host: Crbn I391V mouse, MC-38 tumour; measurement: body weight change
SMILES: Cn1cc(-c2cccc(CN3CCC4(CC3)COc3c4ccc4c3CN([C@H]3CCC(=O)NC3=O)C4=O)c2)cn1
oral, daily, 30 mg/kg, day 19, anti-PD1 combination study: 6.5% and -1% and 5.6% and 4.9% and 5.2%
30 mg/kg, day 6, added: anti-LAG3 antibody 10 mg/kg weekly: -4.5% and -3.8% and -6.9% and 0% and 4.1%
oral, 30 mg/kg once daily, day 18: 6.2% and 2.8% and -1.8% and 0.9% and 3.8%
30 mg/kg, day 32, added: anti-LAG3 antibody 10 mg/kg weekly: -0.7% and 7% and 7.4%
oral, daily, 30 mg/kg, day 8, anti-PD1 combination study: 0.7% and 0% and -0.4% and -4.1% and 0.4%
30 mg/kg, day 29, added: anti-LAG3 antibody 10 mg/kg weekly: -0.4% and -4.2% and -7.3% and 0% and 2.5%
oral, 30 mg/kg once daily, day 1: 0%
oral, daily, 30 mg/kg, day 33, anti-PD1 combination study: 13.1% and 17.8% and -3.7% and 1.7% and 10.2%
30 mg/kg, day 4, added: anti-LAG3 antibody 10 mg/kg weekly: -5.1% and -2.5% and -6.2% and -0.8% and -3.2%
30 mg/kg, day 15, added: anti-LAG3 antibody 10 mg/kg weekly: -5.5% and 2.9% and 8.5% and -4.1% and -0.8% and -0.4% and -6.3% and -5.9%
oral, 30 mg/kg once daily, day 7: 3.7% and -3.4% and 1.8% and -1% and -4.5%
oral, daily, 30 mg/kg, day 12, anti-PD1 combination study: 3.8% and -0.4% and 4.8% and 6.5%

Mixed results
CCCCC[C@@H](O)CC(=O)N[C@@H]1C(=O)N[C@H](CCCNC(=N)N)C(=O)N[C@@H](CO)C(=O)NCC(=O)N(C)[C@H](Cc2ccccc2)C(=O)N[C@@H](CC(C)C)C(=O)N[C@H](CCCNC(=N)N)C(=O)N[C@@H](CCC(=O)O)C(=O)N[C@H](CCC(N)=O)C(=O)N[C@H](Cc2c[nH]c3ccccc23)C(=O)N[C@@H]([C@@H](C)CC)C(=O)N[C@@H]([C@@H](C)O)C(=O)O[C@@H]1C — MIC (Escherichia coli; microbial growth; BAS849; 16 h): 8 µg/mL (≈ 4.9 µM)

For quick reference, copied from above (sample 1):
NTRK2 (Homo sapiens, UniProt Q16620); binding, competition with immobilised ligand: 100%
ALK (Homo sapiens, UniProt Q9UM73, L1196M); binding: 100%
LYN (Homo sapiens, UniProt P07948); binding, competition with immobilised ligand: 100%
ABL1 (Homo sapiens, UniProt P00519, F317I): 51% and 100%
